Published values collected from several papers.
Each line is one published result; not all experiments were run side by side. Several values in a cell are separate wells, animals, samples, runs or records. ± gives the spread as reported.

With `FC(F)(F)c1ccc2c(c1)[C@@H]1CNC[C@H]2C1` the ethanol preference was 46 ± 4% (intermittent two-bottle choice; Wistar rat, 20% ethanol drinking; subcutaneous, 1 mg/kg, 24 h; relative to: ethanol over total fluid intake).
For `CCCCC1(CCCC)CN(c2ccccc2)c2cc(SC)c(OCC(=O)N[C@@H](C(=O)NCC(=O)O)c3ccccc3)cc2S(=O)(=O)C1`, the serum LDL-C was 90.5 mg/dL (measured: LDL cholesterol; human, serum; 10 mg once daily, day 9).
`CC[C@H](C)[C@@H]1NC(=O)[C@@H]2CCCN2C(=O)[C@H](CC(C)C)NC(=O)[C@H](CC(C)C)NC(=O)CNC(=O)[C@@H](NC(=O)[C@@H](NC(=O)[C@H](CC(=O)O)NC(=O)CNC(=O)[C@@H](NC(=O)[C@H](C)NC(=O)CNC(=O)[C@H](CCCCN)NC(=O)[C@H](CC(C)C)NC(=O)[C@H](CC(C)C)NC(=O)[C@H](CCCCN)NC(=O)CNC(=O)[C@@H](NC(=O)[C@@H](N)CC(C)C)C(C)C)C(C)C)C(C)C)CSSC[C@@H](C(=O)O)NC1=O` — result for “log2 fold change”: 0.666 (RNA-seq, measured: Lypd6; mouse, traumatic brain injury model, frontal cortex and hippocampus; dose not given; relative to: TBI alone).
Under “EFS delay (T-C)”, `CN1CCN(S(=O)(=O)c2cc([N+](=O)[O-])ccc2N(CCOS(C)(=O)=O)CCOS(C)(=O)=O)CC1` is recorded as greater than 375 days (NSG mice, sample CB PDX; intraperitoneal, 25 mg/kg weekly x3; relative to: vehicle).
`C[C@H]1O[C@@H](O[C@H]2CC[C@@]3(C)[C@@H](CC[C@]4(C)[C@@H]3C=C[C@]35OC[C@@]6(CCC(C)(C)C[C@H]63)[C@@H](O)C[C@]54C)[C@]2(C)CO)[C@H](O)[C@@H](O[C@@H]2O[C@H](CO)[C@@H](O)[C@H](O)[C@H]2O)[C@H]1O` has a steatosis area of 11.5% and 10.7% and 9.62% and 12.7% and 10.9% (H&E staining; hepatic SIRT1 knockdown mice, no ethanol, liver; dose not given, AAV8-TBG-shRNA, high dose).
`NNc1ccccc1` gave a normalised absorbance of 0.914 (hydrazine ligation kinetics, absorbance; concentration not given, 45 s, together with: 2-formylphenylboronic acid).
`CC[C@@H](C)[C@@H](NC(=O)[C@@H](Cc1ccc(O)cc1)NC(=O)[C@H]1CCCN1C(=O)[C@@H](CCCNC(=N)N)NC(=O)[C@H](N)Cc1c[nH]cn1)C(=O)N[C@H](C)C(=O)N[C@H](Cc1c[nH]cn1)C(=O)N[C@H](CCCNC(=N)N)C(=O)N[C@H](CCCCNC(=O)c1cccc(S(=O)(=O)F)c1)C(=O)N[C@H](Cc1ccc(O)cc1)C(=O)N[C@H](CO)C(=O)N[C@H](Cc1ccccc1)C(N)=O`: “IFN-γ+ CD8+ T cells” 7.71% and 6.61% and 6.36% and 9.58% (ex vivo flow cytometry; MC-38 tumour-bearing mice, spleen; 3.9 mg/kg; relative to: CD8+ T cells).
`Cc1nc(Nc2ccc(CC(=O)O)cc2)nc(Nc2ccc(F)c(C(F)(F)F)c2)c1C`: mRNA level “no effect” (measured: PDE4D; C57BL/6J mice, high-fat diet, liver; intraperitoneal, 0.3 mg/kg daily, 60% fat diet 12 weeks, dosed last four; relative to: vehicle).

For quick reference, copied from above:
`Cc1nc(Nc2ccc(CC(=O)O)cc2)nc(Nc2ccc(F)c(C(F)(F)F)c2)c1C`: mRNA level “no effect” (measured: PDE4D; C57BL/6J mice, high-fat diet, liver; intraperitoneal, 0.3 mg/kg daily, 60% fat diet 12 weeks, dosed last four; relative to: vehicle).
